Published values of several laboratories.
A part holds a random share of what one study measured. Changes are numbered by the printed parent chain.

Sample 1
Target: Interferon regulatory factor 5, full length, phosphomimetic (IRF5, Homo sapiens, UniProt Q13568-2, residues 1-514, K96S/S451D/S453D/S456D/S462D)
Technique: protein-binding microarray
Form: double-stranded DNA, one strand shown
Medium: in vitro
Concentration: 250 nM
Notes: 60-bp whole probe
With: salmon DNA 0.4 mg/ml
Reference: random background probes
Direction: higher = stronger binding
Constant ends, left off below: GCCTAGCAC … GTCTTGATTCGCTTGACGCTGCTG
The log fluorescence of `TCATTTTTGCTTTCTTTACTGTGCTAG` is reported as 3.01 z-score.
`TCAGGTTTGTACACCGCACTGTGCTAG` has a log fluorescence of -0.297 z-score.
The log fluorescence of `TCAACTTTCACTTCTCCACTGTGCTAG` is reported as 7.46 z-score.
With `GACGGTCACCTTCTCCTGACGTGCTAG` the log fluorescence was -0.218 z-score.
`TCACCTTTCCAAATACCACTGTGCTAG` gave a log fluorescence of 0.623 z-score.
For `TTAGGACTGGGGTTGCGGTTAGTGCTA`, the log fluorescence was -0.193 z-score.
For `TCAACCATCTAGTTCTGACTGTGCTAG`, the log fluorescence was 0.0781 z-score.
`TTAGGTCCCGGACTGGGTTAGTGCTAG` has a log fluorescence of -0.806 z-score.

Sample 2
Target: FOS, bZIP domain (human)
Technique: DHFR protein complementation
Medium: yeast
Notes: single substitutions, most at no-binding floor
Reference: wild-type JUN-FOS pair
Direction: higher = stronger binding
Parent: JUN, bZIP domain (human); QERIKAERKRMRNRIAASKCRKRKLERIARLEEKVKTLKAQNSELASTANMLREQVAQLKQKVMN; partner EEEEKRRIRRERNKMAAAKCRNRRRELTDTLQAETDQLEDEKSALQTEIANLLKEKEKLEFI
`T37Y` gave a binding fitness of -0.144 natural log.
`R53S` has a binding fitness of -0.653 natural log.
With `L38Q` the binding fitness was -0.446 natural log.
With `M51T` the binding fitness was 0.052 natural log.
`A29Q` gave a binding fitness of -0.179 natural log.
`K39Y` has a binding fitness of -0.844 natural log.
The binding fitness of `A29P` is reported as -0.544 natural log.
The binding fitness of `L31C` is reported as -0.645 natural log.

Sample 3
Target: Centromere-binding protein 1, full length, N-terminal tag (CBF1, Saccharomyces cerevisiae, UniProt P17106, residues 1-351)
Chain of UniProt P17106 (whole entry, looked up): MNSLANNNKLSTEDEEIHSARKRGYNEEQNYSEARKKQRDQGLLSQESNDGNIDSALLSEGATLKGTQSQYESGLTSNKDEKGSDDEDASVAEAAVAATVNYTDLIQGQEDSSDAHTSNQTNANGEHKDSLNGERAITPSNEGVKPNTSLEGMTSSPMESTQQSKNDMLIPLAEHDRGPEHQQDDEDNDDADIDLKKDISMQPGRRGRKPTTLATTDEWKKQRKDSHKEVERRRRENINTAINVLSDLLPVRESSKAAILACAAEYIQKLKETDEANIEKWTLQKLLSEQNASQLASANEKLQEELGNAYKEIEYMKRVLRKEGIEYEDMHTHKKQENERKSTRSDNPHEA
Technique: protein-binding microarray
Form: double-stranded DNA, one strand shown
Medium: in vitro
Concentration: 0.8 µM
Notes: whole 60-bp probe, no competitor
Direction: higher = stronger binding
For `GAATTTTGTTTCGTCCACCTGACCGAGCCGGCATAGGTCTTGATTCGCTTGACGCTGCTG`, the fluorescence intensity was 1920 a.u.
For `CTAAGTAAAAATCTACACATGACACTCAACACATTCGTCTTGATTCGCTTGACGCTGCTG`, the fluorescence intensity was 955 a.u.
`CTATAGCCCTCTAAACACGTGGAGAGTAACCTTTTCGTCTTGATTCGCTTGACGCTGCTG` has a fluorescence intensity of 2230 a.u.
`CTACAGAAAACTTAGATCGTGACAGCAAATTAATTCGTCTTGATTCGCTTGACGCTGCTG` gave a fluorescence intensity of 1440 a.u.
`GAAGGGCCAGTATTTTATCTGATGTAGGGCAAATAGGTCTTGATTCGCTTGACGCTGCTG` has a fluorescence intensity of 529 a.u.
`CTAAATCACACCGACCACGCTTACATGGACTATTTCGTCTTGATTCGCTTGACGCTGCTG` has a fluorescence intensity of 540 a.u.
`CTAGGTTACAAAATTTACATCATGAGTTTACGGTTCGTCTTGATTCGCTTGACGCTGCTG` has a fluorescence intensity of 581 a.u.
`GAAGTATATTCTTTTGACGTGGTCACCCTATCTTAGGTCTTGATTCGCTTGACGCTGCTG` gave a fluorescence intensity of 506 a.u.

Single results of other studies
Parent: viral docking peptide; CKVKRKLFGSENI
Under “normalised enrichment score”, `CKVKRKLFGAENI [S10A]` is recorded as 3.19 (CCNE2, cyclin fold, Cln2 fusion (human); yeast growth competition, sequencing; yeast; strong parent motif; reference: not given, higher = stronger binding).

Some of these lines once more (sample 2):
`A29Q` gave a binding fitness of -0.179 natural log.
`K39Y` has a binding fitness of -0.844 natural log.
